Results of several laboratories.
Effect on: parasite growth

Cc1ccn2c(CNc3ccc(F)cc3)c(-c3ccccn3)nc2c1  EC50 (Leishmania infantum; intracellular, amastigote): 12600 nM
C[C@H]1CN(c2n[nH]c3nc(N[C@H]4CC[C@H](NS(=O)(=O)CCC(F)(F)F)CC4)ncc23)CCO1  EC50 (Leishmania donovani; THP-1; intracellular, amastigote): 1390 nM
Nc1cccc(-c2cc3c(Oc4cccc(O)c4)ncnc3[nH]2)c1  EC50 (Trypanosoma brucei): 1100 nM
Cc1cc(C)c(C#N)c(SCC(=O)N2CCOCC2)n1  EC50 (Leishmania infantum; mouse Macrophage; intracellular, amastigote): > 64000 nM
O=C(O[C@H]1CN[C@H](C#Cc2cc3ncnc(Nc4ccc5c(ccn5Cc5cc(F)ccc5F)c4)c3s2)C1)N1CCOCC1  EC50 (Trypanosoma brucei): 2000 nM
CN(c1ccc(F)cc1)c1c(-c2cc(Cl)ccn2)nc2ccccn12  EC50 (Leishmania infantum; intracellular, amastigote): 3980 nM
Cc1cc(C(F)(F)F)c(C#N)c(SCC(=O)c2ccccc2)n1  EC50 (Leishmania infantum; mouse Macrophage; intracellular, amastigote): > 64000 nM
CCCCN(Cc1c(-c2ccccc2)nc2ccc(C)cn12)c1cccc(C(F)(F)F)c1  EC50 (Leishmania infantum; intracellular, amastigote): 2510 nM
Cc1cc(C)c(C#N)c(SCC(=O)c2ccncc2)n1  EC50 (Leishmania infantum; mouse Macrophage; intracellular, amastigote): 45500 nM
CN(C)CCCNc1nccc(-c2c(-c3ccc(F)cc3)nn3cc(C(F)(F)F)ccc23)n1  EC50 (Trypanosoma brucei): 2510 nM

For quick reference, copied from above:
Cc1cc(C)c(C#N)c(SCC(=O)N2CCOCC2)n1  EC50 (Leishmania infantum; mouse Macrophage; intracellular, amastigote): > 64000 nM
